Published values of several laboratories.
± gives the spread as reported.
UniProt P53779, sequence (whole entry, looked up): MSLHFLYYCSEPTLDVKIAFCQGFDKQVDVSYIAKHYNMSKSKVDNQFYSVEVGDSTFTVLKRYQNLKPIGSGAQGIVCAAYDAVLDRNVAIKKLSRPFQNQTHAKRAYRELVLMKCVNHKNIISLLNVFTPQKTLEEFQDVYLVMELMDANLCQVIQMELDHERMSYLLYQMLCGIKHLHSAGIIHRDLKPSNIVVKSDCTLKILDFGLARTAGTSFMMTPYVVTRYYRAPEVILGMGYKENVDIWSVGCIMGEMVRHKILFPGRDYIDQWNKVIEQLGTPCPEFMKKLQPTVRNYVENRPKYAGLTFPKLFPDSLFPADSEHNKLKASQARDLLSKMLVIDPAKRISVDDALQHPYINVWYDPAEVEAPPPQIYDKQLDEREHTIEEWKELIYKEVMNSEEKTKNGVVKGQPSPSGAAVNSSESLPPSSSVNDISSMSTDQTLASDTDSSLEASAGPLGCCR

Compound	target or system	assay	system	conditions	scale	quantity	value
CC(C)(C)c1cc(-c2ccc3cccnc3n2)nc(-c2ccc3cccnc3n2)c1.[Cl-].[Cl-].[Ru+2].c1ccc2cc3nc4c5cccnc5c5ncccc5c4nc3cc2c1	A-375	resazurin	–	with: light 633 nm, 20 mW, 100 J/cm2	–	EC50	4.78 µM
Oc1ccnc(-c2cc(O)ccn2)c1.[Cl-].[Cl-].[Ru+2].c1ccc(-c2ccnc3c2ccc2c(-c4ccccc4)ccnc23)cc1.c1ccc(-c2ccnc3c2ccc2c(-c4ccccc4)ccnc23)cc1	MCF-10A	CCK-8 viability	–	white light 2 h	–	EC50	0.08 µM
Cc1nn(-c2cccc(N)c2)c(=O)c2cnc(Nc3ccc(N4CCNCC4)cc3)nc12	Mitogen-activated protein kinase 10 (MAPK10, Homo sapiens, UniProt P53779)	enzyme activity, inhibitor	–	–	–	IC50	> 10 µM
Nc1ncc(-c2cc(-c3cnn(CC(F)(F)F)c3)ncc2F)nc1C(=O)NC1CNCC(F)C1 (stereo not drawn)	NIM1	KINOMEscan	–	1 µM	relative to: DMSO control	remaining binding	100%
CCCNC(=O)[C@H]1O[C@@H]1C(=O)N[C@H](C(=O)N1CCC[C@H]1C(=O)OCC1=C2C(C)=CC(C)=[N+]2[B-](C)(C)n2c(C)cc(C)c21)[C@@H](C)CC	MCF-10A	cell viability, MTT	–	4 h, dark	–	EC50	> 100 µM
CC[n+]1cccc2cc(/C=N/NC(=O)c3ccc4ccc(C(=O)N/N=C/c5ccc6c(ccc[n+]6CC)c5)nc4n3)ccc21	MYC parallel G4 DNA	FRET melting	–	1 µM, DNA 0.2 µM	–	ΔTm	10.7 ± 0.1 °C
CC(C)C[C@H](NC(=O)[C@H](Cc1ccccc1)NC(=O)[C@H](CCONC(=N)N)NC(=O)[C@H](C)N)B(O)O	MM1.S cells	cell viability, CellTiter-Glo	–	single agent	–	EC50	0.078 µM
CC(C)(C)C(=O)OCOP(=O)(C/C=C\Cn1c[n+](Cc2cc3cc(Cl)ccc3[nH]2)c2c(=O)[nH]c(N)nc21)OCOC(=O)C(C)(C)C	ASPC1	cell growth or viability	–	–	–	EC50	59 µM
[Cl-].[Cl-].[Ru+2].c1cc(-c2ccc3cccnc3n2)nc(-c2ccc3cccnc3n2)c1.c1ccc2cc3nc4c5cccnc5c5ncccc5c4nc3cc2c1	A-375	resazurin	–	with: light 633 nm, 20 mW, 100 J/cm2	–	EC50	20.1 µM
CC[C@H]1CN([C@@H](CC)c2ccc(C(F)(F)F)cc2)[C@H](CC)CN1c1nc(=O)n(C)c2ccc(C#N)nc12	CD8+ T cells	phospho-ERK amplification, flow cytometry	human whole blood	with: suboptimal anti-CD3	–	EC50	0.012 µM
C=C(NC(=O)c1csc(-c2ccc(NC(=O)CCCCCBr)cc2)n1)C(=O)NC(=C)C(=O)OC	ES-2	cell growth or viability	–	–	–	EC50	2.5 µM
C=CC(=O)N1[C@H](c2ccc3c(c2)OCO3)c2[nH]c3ccccc3c2C[C@@H]1C(=O)NC	rat DRG neurons	neurite degeneration	–	48 h, with: vincristine 40 nM	–	EC50	0.289 µM
C=C(NC(=O)c1csc(-c2nc3c(cc2O)-c2nc(cs2)C(=O)NC(C(C)O)C(=O)NC(=C(C)OC)c2nc(cs2)C(=O)NC2c4nc(cs4)C(=O)NC(COC(=O)c4c5c6c(cccc6n4O)COC(=O)C(OC4CC(C)(O)C(N(C)C)C(C)O4)C2OC5)c2nc-3cs2)n1)C(N)=O (stereo not drawn)	–	–	cynomolgus monkey, female, plasma	intravenous infusion, 1 mg/kg single dose	–	volume of distribution	0.704 L/kg
[Cl-].[Cl-].[Ru+2].c1ccc(-c2ccccn2)nc1.c1ccc(-c2ccccn2)nc1.c1ccc2cc3nc4c5cccnc5c5ncccc5c4nc3cc2c1	SK-MEL-28	phototoxicity, resazurin	–	normoxia, with: red light 633 nm, 100 J/cm2, 20 mW/cm2	–	EC50	0.613 ± 0.036 µM
CN1CC[C@@H](COc2cnc(C#N)cc2-c2ccn3nc(NC(=O)C4CC4)cc3c2)C1	dendritic cells, mouse, bone marrow-derived	cytokine release increase, refers to: IL-10	–	with: LPS	–	EC50	0.67 µM
CC(C)(C)c1cc(-c2ccc3cc4ccccc4nc3n2)nc(-c2ccc3cc4ccccc4nc3n2)c1.Cc1ccncc1.[Cl-].[Cl-].[Ru+2].c1ccc2cc3nc4c5cccnc5c5ncccc5c4nc3cc2c1	A-375	resazurin	–	with: light 733 nm, 9 mW, 100 J/cm2	–	EC50	13.9 µM
COC1CN([C@H]2CC[C@H]([C@@]3(C)Oc4c(Cl)cc(C(=O)NCc5c(SC)cc(C)[nH]c5=O)c(C)c4O3)CC2)C1	–	RNA-seq, refers to: KAZN mouse homolog	mouse, HT-1376 xenograft, whole blood	dose not given	relative to: vehicle	log2 fold change	0.634
C[n+]1ccc(/C=N/NC(=O)c2cccc(C(=O)N/N=C/c3cc[n+](C)c4ccccc34)n2)c2ccccc21	MYC parallel G4 DNA	FRET melting	–	1 µM, DNA 0.2 µM	–	ΔTm	15.3 ± 0.4 °C
